Published values gathered from unrelated publications.
Protocols differ between the studies behind these lines. Values joined by “and” are separate records of one study, mostly repeats; a detail may differ.
MAOB: Amine oxidase [flavin-containing] B (MAOB, Homo sapiens, UniProt P27338)
UniProt P27338, sequence (whole entry, looked up): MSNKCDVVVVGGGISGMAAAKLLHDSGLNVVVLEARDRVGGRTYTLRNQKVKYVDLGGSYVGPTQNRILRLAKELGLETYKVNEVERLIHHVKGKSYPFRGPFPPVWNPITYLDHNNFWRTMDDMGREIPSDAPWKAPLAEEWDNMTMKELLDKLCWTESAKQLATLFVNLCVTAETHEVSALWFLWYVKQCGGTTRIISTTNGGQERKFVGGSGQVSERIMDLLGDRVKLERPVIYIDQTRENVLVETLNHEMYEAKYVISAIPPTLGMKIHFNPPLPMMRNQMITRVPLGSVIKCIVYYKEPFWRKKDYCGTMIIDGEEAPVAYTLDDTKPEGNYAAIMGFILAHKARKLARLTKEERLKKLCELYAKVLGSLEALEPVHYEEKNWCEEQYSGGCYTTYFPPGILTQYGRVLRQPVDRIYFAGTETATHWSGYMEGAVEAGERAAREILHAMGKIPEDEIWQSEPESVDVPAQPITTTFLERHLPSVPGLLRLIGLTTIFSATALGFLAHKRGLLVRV
NT5E: 5'-nucleotidase (NT5E, Homo sapiens, UniProt P21589)
UniProt P21589, sequence (whole entry, looked up): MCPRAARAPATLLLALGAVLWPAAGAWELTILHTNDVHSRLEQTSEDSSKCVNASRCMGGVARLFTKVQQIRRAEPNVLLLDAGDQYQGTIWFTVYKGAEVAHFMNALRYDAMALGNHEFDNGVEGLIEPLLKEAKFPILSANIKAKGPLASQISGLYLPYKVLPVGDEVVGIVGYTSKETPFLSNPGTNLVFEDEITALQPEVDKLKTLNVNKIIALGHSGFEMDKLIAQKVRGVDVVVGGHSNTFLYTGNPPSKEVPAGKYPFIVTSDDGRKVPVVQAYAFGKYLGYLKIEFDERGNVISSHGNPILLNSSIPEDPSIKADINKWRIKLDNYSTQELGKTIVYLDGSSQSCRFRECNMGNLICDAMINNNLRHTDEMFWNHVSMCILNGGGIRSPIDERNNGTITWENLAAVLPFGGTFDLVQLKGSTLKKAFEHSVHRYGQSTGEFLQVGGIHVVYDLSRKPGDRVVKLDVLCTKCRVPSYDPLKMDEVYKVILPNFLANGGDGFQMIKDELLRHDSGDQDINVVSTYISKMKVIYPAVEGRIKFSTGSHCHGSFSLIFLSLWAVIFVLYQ
rep papain-like protease: Replicase polyprotein 1ab, papain-like protease (rep, Porcine epidemic diarrhea virus, UniProt P0C6Y4)
rep main protease: Replicase polyprotein 1ab, main protease (rep, Porcine epidemic diarrhea virus, UniProt P0C6Y4)
PIP4K2C: Phosphatidylinositol 5-phosphate 4-kinase type-2 gamma (PIP4K2C, Homo sapiens, UniProt Q8TBX8)
UniProt Q8TBX8, sequence (whole entry, looked up): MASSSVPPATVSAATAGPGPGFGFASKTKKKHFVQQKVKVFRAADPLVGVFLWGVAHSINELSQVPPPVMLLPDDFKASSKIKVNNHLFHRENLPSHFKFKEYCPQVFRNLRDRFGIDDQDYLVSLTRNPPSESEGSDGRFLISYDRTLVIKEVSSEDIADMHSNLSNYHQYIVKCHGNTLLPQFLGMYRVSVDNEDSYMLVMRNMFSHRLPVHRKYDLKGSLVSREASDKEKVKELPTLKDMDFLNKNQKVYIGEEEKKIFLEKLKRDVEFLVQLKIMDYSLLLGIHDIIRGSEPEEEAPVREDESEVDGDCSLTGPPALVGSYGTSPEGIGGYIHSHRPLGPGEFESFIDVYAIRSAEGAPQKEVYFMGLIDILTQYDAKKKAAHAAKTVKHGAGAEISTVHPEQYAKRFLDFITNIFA
AMY2: Pancreatic alpha-amylase (AMY2, Sus scrofa, UniProt P00690)
UniProt P00690, sequence (whole entry, looked up): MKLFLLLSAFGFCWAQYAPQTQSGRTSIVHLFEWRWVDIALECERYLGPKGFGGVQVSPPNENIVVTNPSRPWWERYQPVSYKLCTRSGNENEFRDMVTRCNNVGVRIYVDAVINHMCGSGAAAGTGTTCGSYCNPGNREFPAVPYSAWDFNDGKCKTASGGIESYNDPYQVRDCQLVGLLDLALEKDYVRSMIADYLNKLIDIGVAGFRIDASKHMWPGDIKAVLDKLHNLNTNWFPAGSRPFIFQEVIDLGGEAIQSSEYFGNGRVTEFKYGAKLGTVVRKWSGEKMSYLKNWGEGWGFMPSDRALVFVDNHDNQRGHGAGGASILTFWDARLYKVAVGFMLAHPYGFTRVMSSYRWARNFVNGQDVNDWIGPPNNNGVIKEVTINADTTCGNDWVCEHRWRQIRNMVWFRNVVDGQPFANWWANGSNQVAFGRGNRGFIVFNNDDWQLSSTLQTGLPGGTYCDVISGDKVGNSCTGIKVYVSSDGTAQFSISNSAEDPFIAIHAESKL
CDK7 with cyclin H: Cyclin-dependent kinase 7, with cyclin H (CDK7, Homo sapiens, UniProt P50613)
UniProt P50613, sequence (whole entry, looked up): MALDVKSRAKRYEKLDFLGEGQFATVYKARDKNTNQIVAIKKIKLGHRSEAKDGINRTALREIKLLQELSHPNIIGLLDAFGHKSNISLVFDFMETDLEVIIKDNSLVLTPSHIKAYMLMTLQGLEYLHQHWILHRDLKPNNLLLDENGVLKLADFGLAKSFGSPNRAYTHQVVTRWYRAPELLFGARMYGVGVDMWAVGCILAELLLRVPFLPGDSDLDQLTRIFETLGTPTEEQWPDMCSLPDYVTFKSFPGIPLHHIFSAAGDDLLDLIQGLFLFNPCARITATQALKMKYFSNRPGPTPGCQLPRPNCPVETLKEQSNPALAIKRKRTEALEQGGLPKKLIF
SLC6A2: Sodium-dependent noradrenaline transporter (SLC6A2, Homo sapiens, UniProt P23975)
UniProt P23975, sequence (whole entry, looked up): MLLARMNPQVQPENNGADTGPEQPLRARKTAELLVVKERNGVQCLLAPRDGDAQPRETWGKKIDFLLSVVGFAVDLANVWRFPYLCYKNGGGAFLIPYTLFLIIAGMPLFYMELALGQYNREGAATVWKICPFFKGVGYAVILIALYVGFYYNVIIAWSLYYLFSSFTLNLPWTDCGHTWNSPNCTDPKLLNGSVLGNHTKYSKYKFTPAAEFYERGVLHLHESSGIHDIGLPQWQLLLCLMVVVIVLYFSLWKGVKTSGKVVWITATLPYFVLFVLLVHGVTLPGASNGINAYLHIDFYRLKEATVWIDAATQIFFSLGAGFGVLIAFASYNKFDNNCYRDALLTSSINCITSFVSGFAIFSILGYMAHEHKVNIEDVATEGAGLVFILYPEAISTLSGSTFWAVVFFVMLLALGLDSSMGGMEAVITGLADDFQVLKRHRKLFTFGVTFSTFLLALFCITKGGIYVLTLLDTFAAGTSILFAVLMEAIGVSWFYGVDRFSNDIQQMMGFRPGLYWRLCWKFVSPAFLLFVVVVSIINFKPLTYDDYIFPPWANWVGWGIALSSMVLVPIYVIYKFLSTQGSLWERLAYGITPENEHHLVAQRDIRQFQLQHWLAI
SLC22A11: Solute carrier family 22 member 11 (SLC22A11, Homo sapiens, UniProt Q9NSA0)
UniProt P05164, sequence (whole entry, looked up): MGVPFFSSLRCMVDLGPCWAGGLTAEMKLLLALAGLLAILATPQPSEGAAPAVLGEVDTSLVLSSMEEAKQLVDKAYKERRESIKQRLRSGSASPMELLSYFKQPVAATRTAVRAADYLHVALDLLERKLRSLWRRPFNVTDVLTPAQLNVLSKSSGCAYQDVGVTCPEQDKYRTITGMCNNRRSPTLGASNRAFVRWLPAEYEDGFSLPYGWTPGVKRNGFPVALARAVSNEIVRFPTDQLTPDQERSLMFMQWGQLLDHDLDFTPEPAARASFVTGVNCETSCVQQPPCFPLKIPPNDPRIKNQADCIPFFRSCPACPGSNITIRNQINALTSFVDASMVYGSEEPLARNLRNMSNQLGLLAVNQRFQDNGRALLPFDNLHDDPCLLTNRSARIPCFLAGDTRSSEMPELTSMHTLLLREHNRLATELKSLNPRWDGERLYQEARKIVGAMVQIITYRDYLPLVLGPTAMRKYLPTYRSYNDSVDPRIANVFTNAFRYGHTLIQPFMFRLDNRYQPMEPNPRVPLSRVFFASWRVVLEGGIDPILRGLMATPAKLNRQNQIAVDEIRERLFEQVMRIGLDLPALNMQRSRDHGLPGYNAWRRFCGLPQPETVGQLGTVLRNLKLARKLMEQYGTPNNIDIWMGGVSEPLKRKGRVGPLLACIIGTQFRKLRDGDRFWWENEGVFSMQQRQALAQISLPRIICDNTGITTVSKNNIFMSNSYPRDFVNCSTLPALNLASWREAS
UniProt Q9NSA0, sequence (whole entry, looked up): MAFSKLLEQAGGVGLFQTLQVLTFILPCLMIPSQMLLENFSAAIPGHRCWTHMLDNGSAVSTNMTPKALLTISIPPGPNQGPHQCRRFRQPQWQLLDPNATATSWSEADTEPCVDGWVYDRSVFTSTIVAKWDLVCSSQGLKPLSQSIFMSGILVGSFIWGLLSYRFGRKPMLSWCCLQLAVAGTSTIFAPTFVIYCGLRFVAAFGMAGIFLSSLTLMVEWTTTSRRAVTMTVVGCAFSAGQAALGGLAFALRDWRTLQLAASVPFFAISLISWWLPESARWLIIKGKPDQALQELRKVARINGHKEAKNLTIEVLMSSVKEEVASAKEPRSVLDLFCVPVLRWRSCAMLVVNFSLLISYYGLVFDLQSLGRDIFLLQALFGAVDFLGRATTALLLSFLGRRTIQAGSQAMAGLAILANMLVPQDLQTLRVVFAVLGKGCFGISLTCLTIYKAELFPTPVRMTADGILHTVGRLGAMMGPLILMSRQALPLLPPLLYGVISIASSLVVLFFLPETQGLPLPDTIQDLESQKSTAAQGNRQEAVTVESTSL
UniProt P27361, sequence (whole entry, looked up): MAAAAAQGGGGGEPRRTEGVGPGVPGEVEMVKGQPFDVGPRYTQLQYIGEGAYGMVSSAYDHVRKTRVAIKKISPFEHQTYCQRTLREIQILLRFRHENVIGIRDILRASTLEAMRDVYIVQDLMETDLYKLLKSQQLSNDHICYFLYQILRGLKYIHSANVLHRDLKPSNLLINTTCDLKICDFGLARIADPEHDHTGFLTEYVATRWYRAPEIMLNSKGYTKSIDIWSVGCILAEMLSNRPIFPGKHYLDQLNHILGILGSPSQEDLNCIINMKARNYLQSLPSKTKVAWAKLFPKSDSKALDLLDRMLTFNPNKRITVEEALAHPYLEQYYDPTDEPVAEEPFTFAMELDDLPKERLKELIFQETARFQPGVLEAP
UniProt Q00535, sequence (whole entry, looked up): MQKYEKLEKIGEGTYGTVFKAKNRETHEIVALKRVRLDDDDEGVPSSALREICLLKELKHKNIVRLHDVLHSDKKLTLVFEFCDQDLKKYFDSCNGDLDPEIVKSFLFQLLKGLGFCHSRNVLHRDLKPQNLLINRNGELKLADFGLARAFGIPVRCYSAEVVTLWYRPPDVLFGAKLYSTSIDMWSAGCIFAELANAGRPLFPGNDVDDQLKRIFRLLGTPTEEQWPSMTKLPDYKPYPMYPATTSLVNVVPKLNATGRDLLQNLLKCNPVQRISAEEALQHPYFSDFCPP

COc1ccc(NC(=O)c2ccc3c(c2)C(=O)NC3=O)cc1OC
inhibition (MAOB; enzyme activity, inhibitor; 1 µM): < 5%

CC[C@H](C)[C@H](NC(=O)[C@H](CCC(N)=O)NC(=O)[C@@H](NC(=O)[C@H](CCSC)NC(=O)[C@H](CCCCN)NC(=O)[C@H](CO)NC(=O)[C@@H](NC(=O)[C@H](CCSC)NC(=O)[C@H](CC(C)C)NC(=O)[C@H](CC(N)=O)NC(=O)[C@@H](NC(=O)[C@@H](NC(=O)[C@H](CO)NC(=O)[C@H](CC(C)C)NC(=O)[C@H](C)NC(=O)[C@H](CCCNC(=N)N)NC(=O)[C@H](CCC(=O)O)NC(=O)[C@H](Cc1ccc(O)cc1)NC(=O)[C@H](Cc1ccccc1)NC(=O)[C@H](C)NC(=O)[C@H](CC(N)=O)NC(=O)[C@@H](N)CCCCN)[C@@H](C)CC)[C@@H](C)CC)[C@@H](C)O)C(C)C)C(=O)N[C@@H](CC(N)=O)C(=O)N[C@H](C(=O)O)C(C)C
inhibition (Cyclin-dependent kinase 5, with p25 (CDK5, Homo sapiens, UniProt Q00535); enzyme activity, inhibitor, radiometric; 1 µM): -2%

Cc1cc(C)c2c(N)c(C(=O)Nc3ccon3)sc2n1
inhibition (NT5E; enzyme activity, inhibitor; 10 µM): -20%

COc1cc(CNC(=O)c2ccc3ccccc3c2)cc(Br)c1OC
inhibition (rep papain-like protease; enzyme activity, inhibitor, FRET; 10 µM): 1.77%

CN1CC(Oc2cnc(C#N)cc2-c2ccn3nc(NC(=O)C4CC4)cc3c2)C1
inhibition (DDR2 (Homo sapiens, UniProt Q16832); enzyme activity, inhibitor; 1 µM): -7%

O=C(NCc1cc(O)c(O)c(Br)c1)c1ccc(Cl)s1
inhibition (rep main protease; enzyme activity, inhibitor, FRET; 10 µM): 107%

CCOC(=O)c1ccc(NC(=O)CSc2nc(C)cc(-c3ccccc3)c2C#N)cc1
inhibition (NT5E; enzyme activity, inhibitor; 10 µM): 56%

CCCn1cnc2ccc(-c3ccc(NC(=O)CC)nc3)cc2c1=O
inhibition (PIP4K2C; binding; 0.5 µM): 98.8%

Cc1ccc(N(O)N=Nc2ccc(S(=O)(=O)Nc3cc(C)on3)cc2)cc1
inhibition (AMY2; enzyme activity, inhibitor; 120 µg/mL): 42.1%

COc1cc(CNC(=O)c2cccc(C(F)(F)F)c2)cc(Br)c1OC
inhibition (rep papain-like protease; enzyme activity, inhibitor, FRET; 10 µM): 1.46%

CCCN(O)N=Nc1ccc(S(=O)(=O)Nc2nccs2)cc1
inhibition (AMY2; enzyme activity, inhibitor; 60 µg/mL): 21.1%

C=C(C)[C@@H]1CC[C@]2(CO)CC[C@]3(C)[C@H](CC[C@@H]4[C@@]5(C)CC[C@H](O)C(C)(C)[C@@H]5CC[C@]43C)[C@@H]12
inhibition (CDK7 with cyclin H; enzyme activity, inhibitor, ADP detection; 10 µM): 18.6%

O=S(=O)(Nc1nccs1)c1ccc(N=NN(O)c2ccccc2)cc1
inhibition (AMY2; enzyme activity, inhibitor; 20 µg/mL): 5.26%

CCOC(=O)[C@@]12C[C@@H]1[C@@H](n1cnc3c(NCCCCCc4ccccc4)nc(I)nc31)[C@H](O)[C@@H]2O
inhibition (SLC6A2; ligand displacement, radioligand; 10 µM): 61%

O=c1cc(-c2ccccc2)oc2ccc3ccccc3c12
inhibition (CDK7 with cyclin H; enzyme activity, inhibitor, ADP detection; 10 µM): 85.8%

CCOc1nc2cccc(C(=O)O)c2n1Cc1ccc(-c2ccccc2-c2nc(=O)o[nH]2)cc1
inhibition (SLC22A11; transporter uptake, inhibitor; 25 µM): 50 to 90%

C[C@H]1O[C@H](O[C@H]2[C@H](O)[C@@H](O)[C@@H](O[C@H]3[C@H](O)[C@@H](O)C(O)O[C@@H]3CO)O[C@@H]2CO)[C@H](O)[C@@H](O)[C@@H]1N[C@H]1C=C(CO)[C@@H](O)[C@H](O)[C@H]1O (stereo partly drawn)
inhibition (AMY2; enzyme activity, inhibitor; 60 µg/mL): 48.9%

COc1cc(CNC(=O)c2sc3nc(C)cc(C)c3c2N)cc(OC)c1OC
inhibition (NT5E; enzyme activity, inhibitor; 10 µM): -23%

Cc1cccc(N(O)N=Nc2ccc(S(=O)(=O)Nc3nccs3)cc2)c1
inhibition (AMY2; enzyme activity, inhibitor; 20 µg/mL): 15.8%

CCNC(=O)c1cnn(-c2ccc(-n3ccc(Cl)c(Cl)c3=O)cc2)c1
inhibition (TRPC3 (Homo sapiens, UniProt Q13507); ion current, inhibitor, patch clamp; HEK293; 10 µM): > 90%

Cc1cc(O)c(-c2ccc([C@@H](C)CN(C)C)cc2)c2c1[nH]c(=O)c1sccc12
inhibition (MAP3K21 (Homo sapiens, UniProt Q5TCX8); enzyme activity, inhibitor; 0.1 µM): -13.4%

COc1cc(CNC(=O)c2ccc3ccccc3n2)cc(Br)c1OC
inhibition (rep papain-like protease; enzyme activity, inhibitor, FRET; 10 µM): 10.1%

CC[C@H](C)[C@H](NC(=O)[C@H](CCC(N)=O)NC(=O)[C@H](CC(C)C)NC(=O)[C@H](CCSC)NC(=O)[C@H](CCCCN)NC(=O)[C@H](CO)NC(=O)[C@H](CO)NC(=O)[C@H](CCSC)NC(=O)[C@H](CC(C)C)NC(=O)[C@H](CC(N)=O)NC(=O)[C@@H](NC(=O)[C@@H](NC(=O)[C@H](CO)NC(=O)[C@H](CC(C)C)NC(=O)[C@H](CS)NC(=O)[C@H](CCCNC(=N)N)NC(=O)[C@H](CC(=O)O)NC(=O)[C@H](Cc1c[nH]c2ccccc12)NC(=O)[C@H](Cc1ccccc1)NC(=O)[C@H](C)NC(=O)[C@H](CCC(=O)O)NC(=O)[C@@H](N)CCCCN)C(C)C)[C@@H](C)CC)C(=O)N[C@@H](CC(N)=O)C(=O)N[C@@H](C)C(=O)O
inhibition (MAPK3 (Homo sapiens, UniProt P27361); enzyme activity, inhibitor, radiometric; 50 µM): 3%

CSc1ccccc1C(=O)NCc1cc(O)c(O)c(Br)c1
inhibition (rep papain-like protease; enzyme activity, inhibitor, FRET; 10 µM): 8.05%

O=C(NCc1ccccc1)c1ccc2c(c1)C(=O)NC2=O
inhibition (MAOB; enzyme activity, inhibitor; 1 µM): < 5%

O=C(NCc1cc(O)c(O)c(Br)c1)N1CCCC1
inhibition (rep papain-like protease; enzyme activity, inhibitor, FRET; 10 µM): 111%

COc1cc(CNC(=O)CSc2nc(C)cc(C)c2C#N)cc(OC)c1OC
inhibition (NT5E; enzyme activity, inhibitor; 10 µM): -14%

O=C(NCc1cc(O)c(O)c(Br)c1)c1nccs1
inhibition (rep main protease; enzyme activity, inhibitor, FRET; 10 µM): 111%

CCCCCC(=O)Nc1ccc(-c2ccc3ncn(Cc4ccccc4)c(=O)c3c2)cn1
inhibition (PIP4K2C; binding; 0.5 µM): < 80%

COCCOCCOCCNC(=O)c1sc2nc(C)cc(C(F)(F)F)c2c1N
inhibition (NT5E; enzyme activity, inhibitor; 10 µM): 11%

NC/C(=C\F)COc1cccc(Cn2c(=S)[nH]c(=O)c3[nH]cnc32)c1
inhibition (Myeloperoxidase (MPO, Homo sapiens, UniProt P05164); enzyme activity, inhibitor, fluorescence; 61.7 nM): 79% and 90.8% and 65.1% and 76.3% and 94.3% and 78.8% and 61.6% and 85.3%

C[C@H]1O[C@H](O[C@H]2[C@H](O)[C@@H](O)[C@@H](O[C@H]3[C@H](O)[C@@H](O)C(O)O[C@@H]3CO)O[C@@H]2CO)[C@H](O)[C@@H](O)[C@@H]1N[C@H]1C=C(CO)[C@@H](O)[C@H](O)[C@H]1O (stereo partly drawn)
inhibition (Pancreatic alpha-amylase (Homo sapiens, UniProt P04746); enzyme activity, inhibitor; 100 µg/mL): 90.3%

COc1ccc(NC(=O)c2sc3nc(-c4ccccc4)cc(C(F)(F)F)c3c2N)cc1
inhibition (NT5E; enzyme activity, inhibitor, HPLC; 10 µM): 92%

CCCOCCN(C(=O)CCl)c1c(CC)cccc1CC
inhibition (SLC22A11; transporter uptake, inhibitor; 25 µM): 76.5%

CN(O)N=Nc1ccc(S(=O)(=O)Nc2nccs2)cc1
inhibition (AMY2; enzyme activity, inhibitor; 20 µg/mL): 15.8%

CCCCC(=O)Nc1ccc(-c2ccc3ncn(CCC)c(=O)c3c2)cn1
inhibition (PIP4K2C; binding; 0.5 µM): 100%

OC[C@@]12C[C@@H]1[C@@H](n1cnc3c(NC(C4CCC4)C4CCC4)nc(C#Cc4ccc(Cl)s4)nc31)[C@H](O)[C@@H]2O
inhibition (SLC6A2; ligand displacement, radioligand; 10 µM): 44%

CCN(O)N=Nc1ccc(S(=O)(=O)Nc2onc(C)c2C)cc1
inhibition (AMY2; enzyme activity, inhibitor; 300 µg/mL): 68.4%

O=c1cc(-c2ccc3c(c2)OCO3)oc2c1ccc1occc12
inhibition (CDK7 with cyclin H; enzyme activity, inhibitor, ADP detection; 10 µM): 27%

O=C1C[C@@H](c2ccccc2)Oc2cc(O)cc(O)c21
inhibition (AMY2; enzyme activity, inhibitor; 50 µM, 30 min): 24.4%

Cc1ccc(N(O)N=Nc2ccc(S(=O)(=O)Nc3onc(C)c3C)cc2)cc1
inhibition (AMY2; enzyme activity, inhibitor; 20 µg/mL): 10.5%

O=C(NCc1cc(O)c(O)c(Br)c1)c1cccc2ccccc12
inhibition (rep papain-like protease; enzyme activity, inhibitor, FRET; 10 µM): 23.5%

Some of these lines once more:
COc1cc(CNC(=O)c2ccc3ccccc3n2)cc(Br)c1OC
inhibition (rep papain-like protease; enzyme activity, inhibitor, FRET; 10 µM): 10.1%

CC[C@H](C)[C@H](NC(=O)[C@H](CCC(N)=O)NC(=O)[C@H](CC(C)C)NC(=O)[C@H](CCSC)NC(=O)[C@H](CCCCN)NC(=O)[C@H](CO)NC(=O)[C@H](CO)NC(=O)[C@H](CCSC)NC(=O)[C@H](CC(C)C)NC(=O)[C@H](CC(N)=O)NC(=O)[C@@H](NC(=O)[C@@H](NC(=O)[C@H](CO)NC(=O)[C@H](CC(C)C)NC(=O)[C@H](CS)NC(=O)[C@H](CCCNC(=N)N)NC(=O)[C@H](CC(=O)O)NC(=O)[C@H](Cc1c[nH]c2ccccc12)NC(=O)[C@H](Cc1ccccc1)NC(=O)[C@H](C)NC(=O)[C@H](CCC(=O)O)NC(=O)[C@@H](N)CCCCN)C(C)C)[C@@H](C)CC)C(=O)N[C@@H](CC(N)=O)C(=O)N[C@@H](C)C(=O)O
inhibition (MAPK3 (Homo sapiens, UniProt P27361); enzyme activity, inhibitor, radiometric; 50 µM): 3%

CSc1ccccc1C(=O)NCc1cc(O)c(O)c(Br)c1
inhibition (rep papain-like protease; enzyme activity, inhibitor, FRET; 10 µM): 8.05%

O=C(NCc1ccccc1)c1ccc2c(c1)C(=O)NC2=O
inhibition (MAOB; enzyme activity, inhibitor; 1 µM): < 5%

O=C(NCc1cc(O)c(O)c(Br)c1)N1CCCC1
inhibition (rep papain-like protease; enzyme activity, inhibitor, FRET; 10 µM): 111%

COc1cc(CNC(=O)CSc2nc(C)cc(C)c2C#N)cc(OC)c1OC
inhibition (NT5E; enzyme activity, inhibitor; 10 µM): -14%
